{"data": "Results gathered from unrelated publications", "target": "Prostaglandin G/H synthase 2 (PTGS2, Homo sapiens, UniProt P35354)", "read-out": "enzyme activity", "action": "inhibitor", "note": "Each line is one published result; not all experiments were run side by side.", "sequence of UniProt P35354 (whole entry, looked up)": "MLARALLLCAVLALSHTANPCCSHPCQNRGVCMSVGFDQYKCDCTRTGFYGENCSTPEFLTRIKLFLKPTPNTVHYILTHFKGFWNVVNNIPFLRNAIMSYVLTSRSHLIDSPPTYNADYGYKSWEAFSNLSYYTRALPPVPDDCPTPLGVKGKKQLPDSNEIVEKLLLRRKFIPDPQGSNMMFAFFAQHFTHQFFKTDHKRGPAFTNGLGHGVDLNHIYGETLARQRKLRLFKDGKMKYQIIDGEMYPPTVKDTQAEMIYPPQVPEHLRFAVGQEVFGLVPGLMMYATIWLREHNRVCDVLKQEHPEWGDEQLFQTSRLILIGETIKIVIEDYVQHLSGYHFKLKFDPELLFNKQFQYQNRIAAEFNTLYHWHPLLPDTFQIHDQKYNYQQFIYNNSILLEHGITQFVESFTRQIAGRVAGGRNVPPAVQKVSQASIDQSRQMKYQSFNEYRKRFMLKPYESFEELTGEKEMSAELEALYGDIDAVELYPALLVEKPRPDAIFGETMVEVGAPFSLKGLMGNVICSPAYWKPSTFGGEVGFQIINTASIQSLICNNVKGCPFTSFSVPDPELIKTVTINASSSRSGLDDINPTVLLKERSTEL"}
{"SMILES": "CC(=O)c1cc2ccccc2oc1=Nc1nccs1", "method": "ELISA", "IC50": "0.33 µM"}
{"SMILES": "CCN(CC)c1ccc(/C=C/C(=O)C(c2ccccc2)c2ccccc2)cc1", "method": "ELISA", "IC50": "51.2 µM"}
{"SMILES": "O=C(Cc1ccccc1Nc1c(Cl)cccc1Cl)NNC(=S)Nc1ccc(Cl)c(Cl)c1", "IC50": "1.29 µM"}
{"SMILES": "COc1cc(OC)cc(C(=O)/C=C/c2ccc(N(C)CCO)cc2)c1", "method": "ELISA", "IC50": "4.78 µM"}
{"SMILES": "CCCCCCCCCCCC1=C(O)C(=O)C=C(NCCN2CCOCC2)C1=O", "method": "ELISA", "IC50": "1.54 µM"}
{"SMILES": "COc1cc(OC)c(C(=O)/C=C/c2ccc(N(C)CCO)cc2)c(OC)c1", "method": "ELISA", "IC50": "8.38 µM"}
{"SMILES": "CC(C)[C@H](NC(=O)[C@H](CCC(=O)O)NC(=O)[C@@H](NC(=O)[C@@H](C)c1cccc(C(=O)c2ccccc2)c1)C(C)C)C(=O)N[C@@H](CCC(=O)O)C(=O)O", "method": "fluorescence", "IC50": "4.8 µM"}
{"SMILES": "N#CC1=C(N)n2c(nnc2-c2ccncc2)NC1c1ccc(Cl)cc1 (stereo not shown)", "IC50": "23.6 µM"}
{"SMILES": "O=[N+]([O-])c1cccc(C2=Nn3c(nnc3-c3ccc(-n4nc(-c5ccccc5O)nc4-c4ccccc4O)cc3)SC2)c1", "IC50": "79.5 µM"}
{"SMILES": "N#CC1=C(N)n2c(nnc2-c2ccncc2)NC1c1ccc(Br)cc1 (stereo not shown)", "IC50": "59.6 µM"}
{"SMILES": "COC(=O)c1ccc(-n2nc(-c3ccccc3O)nc2-c2ccccc2O)cc1", "IC50": "1.12 µM"}
{"SMILES": "Cc1ccc(C(=O)/C=C/c2ccc(N(C)CCO)cc2)o1", "method": "ELISA", "IC50": "10.1 µM"}
{"SMILES": "Cc1ccc(C2Nc3nnc(-c4ccncc4)n3C(N)=C2C#N)cc1 (stereo not shown)", "IC50": "55.7 µM"}
{"note": "A few entries again:"}
{"SMILES": "N#CC1=C(N)n2c(nnc2-c2ccncc2)NC1c1ccc(Br)cc1 (stereo not shown)", "IC50": "59.6 µM"}
